Measured values collected from several papers.
Numbered parts are unrelated; each lists some results of a single study.

Study 1 — technique: universal PBM; form: double-stranded DNA, one strand shown; sample: in vitro; tested at: not given; reading: higher = stronger binding
Target: Sal-like protein 4, full length isoform B (SALL4, Homo sapiens, UniProt Q9UJQ4-2, residues 1-616)
Setting: 8-mer, flanks averaged, mean of replicates
Residues (chain): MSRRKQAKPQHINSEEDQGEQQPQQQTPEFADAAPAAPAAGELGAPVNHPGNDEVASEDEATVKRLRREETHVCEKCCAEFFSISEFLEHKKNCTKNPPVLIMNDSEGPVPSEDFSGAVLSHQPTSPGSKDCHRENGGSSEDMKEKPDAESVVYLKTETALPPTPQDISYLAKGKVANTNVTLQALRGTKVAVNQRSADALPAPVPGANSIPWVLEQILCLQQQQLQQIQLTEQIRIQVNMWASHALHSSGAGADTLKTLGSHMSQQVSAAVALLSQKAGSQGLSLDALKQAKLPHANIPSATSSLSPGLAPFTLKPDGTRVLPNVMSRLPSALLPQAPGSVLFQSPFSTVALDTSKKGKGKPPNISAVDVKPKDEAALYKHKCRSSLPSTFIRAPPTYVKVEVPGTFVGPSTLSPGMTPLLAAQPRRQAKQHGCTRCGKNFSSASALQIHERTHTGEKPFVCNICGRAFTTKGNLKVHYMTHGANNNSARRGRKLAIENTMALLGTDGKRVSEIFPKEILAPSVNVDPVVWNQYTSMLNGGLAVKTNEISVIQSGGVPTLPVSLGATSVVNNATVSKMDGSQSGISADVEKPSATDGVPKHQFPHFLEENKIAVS
| Oligonucleotide | E-score |
| --- | --- |
| AGGCGCAG | -0.255 |
| AAGCTCAG | -0.0586 |
| AAACGTCG | 0.00376 |
| CGGGTTCA | -0.233 |
| CAACCGCC | -0.312 |
| CTTCGTAC | 0.00322 |
| CCCAATTA | 0.115 |
| TGCTCCAA | -0.0262 |
| AGTTCGTG | -0.183 |
| TTCTGAAA | 0.224 |
| ATGCAATC | 0.0687 |
| ACTAATTA | 0.369 |
| CATAAGCC | 0.171 |
| CCGAGTTC | -0.151 |
| GGAAACAA | -0.0186 |
| CGGCCGAA | -0.239 |
| ACCTGAGA | 0.00101 |
| GGACGGAC | -0.274 |
| GAGGTGCA | -0.178 |
| TAATAACA | 0.403 |
| GAAAGCAA | 0.081 |
| TGCGGCCA | -0.265 |
| ATGGCTGC | -0.068 |
| AATTGACT | 0.112 |
| ATTCCACC | 0.0545 |

Study 2 — technique: protein-binding microarray; form: double-stranded DNA, one strand shown; sample: in vitro; tested at: 2200 nM top; setting: 60-bp whole probe; together with: salmon DNA 0.4 mg/ml; reference: random background probes; reading: higher = stronger binding; all sequences stand within: GCCTAGCAC … GTCTTGATTCGCTTGACGCTGCTG
Target: Interferon regulatory factor 7, full length, phosphomimetic (IRF7, Homo sapiens, UniProt Q92985, residues 1-503, S471D/S472D/S475D/S476D/S477D/S483D/S484D/S487D)
Residues (chain): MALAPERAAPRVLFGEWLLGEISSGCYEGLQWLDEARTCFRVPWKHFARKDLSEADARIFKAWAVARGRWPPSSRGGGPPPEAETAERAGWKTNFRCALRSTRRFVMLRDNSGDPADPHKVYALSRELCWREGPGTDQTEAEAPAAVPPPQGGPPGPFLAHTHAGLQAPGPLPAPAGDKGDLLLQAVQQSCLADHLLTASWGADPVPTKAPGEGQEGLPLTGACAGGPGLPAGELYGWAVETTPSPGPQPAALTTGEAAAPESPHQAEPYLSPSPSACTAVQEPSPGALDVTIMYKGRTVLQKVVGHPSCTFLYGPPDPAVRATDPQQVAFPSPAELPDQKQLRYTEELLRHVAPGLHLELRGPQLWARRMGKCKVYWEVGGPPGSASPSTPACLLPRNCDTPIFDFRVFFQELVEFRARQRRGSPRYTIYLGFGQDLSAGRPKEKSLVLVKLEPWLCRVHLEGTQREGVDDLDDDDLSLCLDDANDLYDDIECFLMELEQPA
| Oligonucleotide | fitted relative affinity [z-score] |
| --- | --- |
| AACGGTATCCTACTGCTGACGTGCTAG | 0.987 |
| CTTAGCTTGGGTCTGTGCCTGTGCTAG | -0.347 |
| GAGGGTATCGGTTTCGGGACGTGCTAG | 3.68 |
| GACGTTTCCCTTTTCCTGACGTGCTAG | 4.45 |
| CTCTACATGTGTTTAAAAAGGTGCTAG | 0.488 |
| GACGGTCTCAGTATCGAGACGTGCTAG | -0.146 |
| TTAGGTTTCGGATATCGGTTAGTGCTA | 3.65 |
| TTAGGTCTCCTTCACCTTTAGTGCTAG | 0.888 |
| TCATACATTTATATCTTACTGTGCTAG | 1.04 |
| TCATTTTACTTTCTATCACTGTGCTAG | 4.16 |
| GACGATTTCAGTTTCGGGACGTGCTAG | 5.87 |
| GAGGGACTGGGGTTTCGGGACGTGCTA | 0.498 |
| TTAGAACTGAGACTGTATTAGTGCTAG | -0.677 |
| TCAAATATATATATTATACTGTGCTAG | 0.11 |
| TCAAGTTCAGTTCTCTAACTGTGCTAG | 0.699 |

Study 3 — technique: RNA Bind-n-Seq; form: RNA; sample: in vitro; tested at: 100 nM; reference: input RNA pool; reading: higher = stronger binding
Target: RING finger protein unkempt homolog, zinc fingers 1-6, SBP tag (UNK, Homo sapiens, UniProt Q9C0B0, residues 30-357)
Chain of UniProt Q9C0B0 (30-357, looked up): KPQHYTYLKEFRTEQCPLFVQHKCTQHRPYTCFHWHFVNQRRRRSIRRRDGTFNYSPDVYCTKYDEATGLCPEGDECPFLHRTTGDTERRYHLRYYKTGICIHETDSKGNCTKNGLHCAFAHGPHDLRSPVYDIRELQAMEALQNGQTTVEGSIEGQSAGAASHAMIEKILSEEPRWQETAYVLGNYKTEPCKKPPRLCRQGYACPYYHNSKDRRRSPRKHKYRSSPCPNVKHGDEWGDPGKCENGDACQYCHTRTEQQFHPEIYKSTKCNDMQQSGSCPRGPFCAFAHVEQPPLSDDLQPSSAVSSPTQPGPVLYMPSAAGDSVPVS
Setting: RNA with constant flanks, vertebrate orthologous sites, ends assumed
All sequences stand within: GGGAGUUCUACAGUCCGACGAUC … CAACAGAGGAUUGAGCAUCA
| Oligonucleotide | bound/input enrichment [ratio] |
| --- | --- |
| GUGUUUUGGUACAAAGCUGUGUACCAAUACUCAUCUUCUUUACAUUAUACCAACUAACCUUAGAAAUAGGAAUUUAAUAUUUUUCAGAAUUUUACAUUGCUGUAUAUUCAAAAUUUUAAA | 0.657 |
| ACAGGAGCAGCACAGGCUGUCUGAUCUUUGGGGAAAUGAGCUUUGCUUUUUAUAUUUAAAUAGGAUACUUUUAUAUGAUGGGUGCUUUGAGUGUGAAUGCAGCAGGCUCUCCAUUUCAGA | 0.938 |
| GCCUUACACUUAAACUGGUAUUUUCAAACAAUAGGAAACUAUUUUCUUUUUUACAGUUUAGUGUGUAUCUGGCUUGUACAUGGAAGACUAAAAUGUUUGAUUUGCUAAAUAUGGUCUUUG | 0.163 |
| CAGCUGAUUCACUCAUUGGGAGAGCUGCACAUAUAGCUGUUCUUGAUUCAGAAAUAUUUUUAGAGAAAUUCUUUCUGGUUGCUGCCCUCAAAUAUUUCCAAUAGGAUAAAAACAUUGUUA | 0.986 |
| CUUCCUUCCUUCCUUUAUUUUUUUUAUUUUUUUUUUAAUUUUUCUUUCUUUUUGUUUUGGUAGUAGUUGUUACCCACGCCAUUUUACGUCUCCUUCACUGAAGGGCUAGAGUUUUAACUU | 12.2 |
| UGUCCGUAAGUACUGUCCCUGGCCGGGGCCAAAGGCCAGGUGUCUCACCAAGGACAUGCAUUUAAAACAUUUUUUAAAUCAUUGUACAAGAAGAGAUGUGUCUGAACGGCAUCUCAAAGU | 0.231 |
| UAUUUUCUUAUUUUAGGUAUCAUUGCCCAAUGCCCAAGAUCUUUUAUGUUCAGCUGACCGUAGGGAAUAAUGAAUUUUUUGGGGAAGGGAAGACUCGACAAGCUGCUAGACACAAUGCUG | 1.24 |
| AGCAGUUAGGGUGGGCCGUGCCUCUGCAUUUCCCAUGAGGAGAAAAGCCCAAAUCGAUGACACACAUUUCACACAUCUGAUGAUGAUCUUUUUGUUUUCUGCUUUUACGUAUGCAUCAAA | 0.347 |
| CUAUGAUGUCAAACAUAUCUACCCAAAGAACUAACAUUUUAUAAAUAUUACUAGUUUAGCUGCAGUCUAAGUAUUAAUUAUGACAAACAGCCAAAGUGAAUUUAAGAGUGUAAGUAAGAC | 0.305 |
| CUGAAGCUUUGUGUUUGGCUGCACAUGCAUAAGCUGCUACAAAUAGAAUAAAGAAUUUCAUAGCCUGUAUCUAUCAUUUAGAUGCAUGGAAAAAUGGGCUUUGCACUCUGGGUUUGGAGC | 3.37 |
| ACAGAAGAAGAGCUCACAACUCAAAAGGAACUAUUAAAAGAGUUUCUAAUGGCUGAAAGCUAGGAAAAAUUAGGACAAUUUUACAAAUGAGCCAUUAAAACAAAACAAAAAAAAAGGAUA | 1.29 |

Study 4 — technique: RNA Bind-n-Seq; form: RNA; sample: in vitro; tested at: 365 nM; reference: no-protein control; reading: higher = stronger binding
Target: RNA binding protein fox-1 homolog 2, RRM domain, GST-SBP tag (RBFOX2, Homo sapiens, UniProt O43251-10, residues 100-194)
Setting: natural RNA segment, single round, ends assumed
All sequences stand within: GGGAGUUCUACAGUCCGACGAUC … UGGAAUUCUCGGGUGCCAA
Target sequence (chain): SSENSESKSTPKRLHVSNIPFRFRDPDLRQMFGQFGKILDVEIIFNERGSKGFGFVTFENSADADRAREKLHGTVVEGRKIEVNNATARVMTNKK
| Oligonucleotide | RBNS enrichment (R) |
| --- | --- |
| AAGAGCUCCAGCAGGCUACACAGAGAUGCUCAGCCCUCAGCGCUUGCAGGCUUCCCGUCACGUGUCCCUGCUGGAAGGCUAUUCAGUGUUUGUAUUUAUUGUGCCUUACA | 0.801 |
| CACAGCACUCUAUCUCUCAGAGUCUGGAUAAGAAUUCCCAUGCUUGUUGGGACGAGACCAACUGUGCUGUUGCUAUGGGACCUGGAGGAGGGUUAGGCAUGGGUGACACC | 3.57 |
| CCCCUCCUGGGUGCUCACCGCCUGCUACACAGGCAGGAAUGCGGUUGGGAGGCAGGUCGGGCUGCCAGCCCAGCUGGCCGGAAGGAGACUGUGGUUUUUGUGUGUGUGGA | 0.977 |
| UCCACUCCCACUGCCAGGAUUUUGUAUUGCCAUCGGGUGCCAAAUAAAUGCUCAUAUUUAUUACUGAUGUGUGCUCAAUAUCUGUUUCUGUAGAUACUCAGUCCUCUGAA | 0.57 |
| GCAGAGCUCGAAGAGCGGCCACAAGAAACAGAAAAACAAGGACAGGGAGUAUUACGUGUAAACAUGCGAACACUGCUCACACGCGAGUUUUCACAGUUAUUUCUAUCCAC | 0.481 |
| UUGUGACAGCAUCUUCACCACUUUGGGGACCAUCCAGAGUGGGGGAGUGGGGGAGACUUCACCCUGGAGCCAAAGGCUACACCGUACGUGUAGUCCCAGAGCCCGUCACA | 0.298 |
| CCCAUGGAGAAAUGGAGACAUCUUGUCCCCACCUGAGGAGUGGACAUCUGCCUGAUUCUUGCCAACACGAGGGGUGGAAAUGGGAGAAAAAGCUUUUAGUUGCUAAUUUG | 0.374 |
| UCCAUAUAGUAAAAUAACAUUUCUGCCCAGGAUAAUAGUCACAGUUUUCCAGGGAGGGAAUGAUAUAAUUUUCAUGACAAUGUCAUGUGCUGAUAGAAUUUCUCCAUUGA | 0.403 |
| UAAGAAAAUAUAUUUUUGGUAUAACUUUUAUGAGAAAAAUAAAAUAUAUUCUGGUCCAAACUUCUAAUUUGUUGUGGCAAAAAUUACUGAACUUUACAAAAUAGUUUUGU | 0.913 |
| AUUGUACUAGGAUUAAAAACAAUAAACUUUCAUGAUAAAGCCGAUGAGAUUCAUGGGCUAUACAGCAUGGGCCCUUUUCUCUUGUUUUCUUAAUUUUAUUUUUAAUUGCU | 11 |
| CAUCGUCACGAGCCCCUGUGGUCAUGGGCGACCUCACACCUCCCUCCCUGAGUUCUGCUCUGACAUAAGGAAGUCCUCGGUGGCUGGUGCAGCGCGGCUGUGCUGUGCUG | 0.351 |
| UUCCUCUUUAAAAAACUGAGAAAAUGCAAAAACUGGAACUUUUUGCAAUAUUAUAAAAGAAGUAAUCUUAUUUUAGCUCAUUCUGUGACAUGUGCGACUCUUAAGAAAGC | 0.6 |

For quick reference, copied from above (study 2):
| Oligonucleotide | fitted relative affinity [z-score] |
| --- | --- |
| GACGTTTCCCTTTTCCTGACGTGCTAG | 4.45 |
| TCAAATATATATATTATACTGTGCTAG | 0.11 |
| AACGGTATCCTACTGCTGACGTGCTAG | 0.987 |
| GAGGGACTGGGGTTTCGGGACGTGCTA | 0.498 |
| GACGGTCTCAGTATCGAGACGTGCTAG | -0.146 |
